Experimental data gathered from unrelated publications.
Compare with care: the assays were run in different laboratories. Several values in a cell are separate wells, animals, samples, runs or records. ± marks the error that the study gave.

`Fc1ccc(CN(Cc2ccc(F)cc2)c2ccc3c[nH]nc3c2)cc1` gave a viability of 110 ± 10.3% (sample A patient iPSC-derived NPCs; MTS; 10 µM, 24 h; relative to: vehicle).
`COc1ccc(-n2nc(C(C)=O)s/c2=N\N=C(/C)c2ccc(NC(=O)c3ccc(Cl)cc3)cc2)cc1` gave a viability of 14.1% (HepG2; 0.312 µM).
The viability of `Nc1cccc2c1C(=O)N(C1CCC(=O)NC1=O)C2=O` (stereo not shown) is reported as 28% and 31% and 16% (MM1.S; XTT; 1.2 µM).
`C=C1C(=O)O[C@@H]2C[C@@]3(C)CCCC(=C)[C@@H]3C[C@H]12` gave a confluence of 0.35 ± 0.1 (COS-7; 30 µM, 24 h, 0.1% DMSO, unit not given; relative to: vehicle control).
For `Cc1ccc(CNC(=O)Cn2cc(CSc3nc4ccccc4[nH]3)nn2)cc1`, the viability was 78.4% (Caco-2; MTT; 3.91 ppm).
`Fc1ccc(CNc2ccc3scnc3c2)cc1` has a viability of 114 ± 1.51% (sample A patient iPSC-derived NPCs; MTS; 10 µM, 24 h; relative to: vehicle).
For `CCOC(=O)NCCCC(=O)NCCc1ccccc1`, the viability was 134% (OCI-Ly1; 1 µM, 120 h).
With `OCc1nc2ccc(NCc3ccc(OC(F)(F)F)cc3)cc2[nH]1` the viability was 148 ± 6.23% (sample A patient iPSC-derived NPCs; MTS; 10 µM, 24 h; relative to: vehicle).
With `NC(=O)[C@H](CCCN=C(N)CCl)NC(=O)c1ccccc1` the viability was 183% (OCI-Ly1; 0.1 µM, 120 h).
`Cc1cccc(-c2[nH]c(CNc3ccccc3F)nc2-c2ccc3ncnn3c2)n1` has a viability of 98% (MM1.S pomalidomide-resistant; XTT; 0.25 µM; relative to: untreated).
`CC(=O)Nc1ccc(NC(=S)NC(=O)c2ccc(C(C)(C)C)cc2)cc1` gave a viability of 166% (OCI-Ly1; 0.1 µM, 120 h).
`COc1cc2ncnc(Nc3ccc(Oc4ccccc4)c(C)c3C)c2cc1OC` has a viability of 93.3% (COLO 205 (BRAF V600E); resazurin; 0.3 µM, 72 h, with: trametinib; relative to: DMSO).
For `COc1c(O[C@@H]2O[C@H](CO)[C@@H](O)[C@H](O)[C@H]2O)c(C)cc2c1C(=O)c1c(O)cccc1C2=O`, the cell viability was 86.1 ± 4.66% (HepaRG co-cultured with HK-2; MTT; 16.67 µM, 48 h; relative to: untreated control).
For `COc1cc2ncnc(Nc3ccc(Oc4ccccc4)cc3C)c2cc1OC`, the viability was 99.3% (LoVo (KRAS G13D); resazurin; 0.1 µM, 72 h, with: trametinib 0 nM).
With `COc1c(O)c(C)cc2c1C(=O)c1c(cc(O)c(O)c1O)C2=O` the cell viability was 101 ± 9.23% (HepaRG co-cultured with HK-2; MTT; 16.67 µM, 48 h; relative to: untreated control).
For `O=C(c1ccc(F)cc1)c1ccc2[nH]cnc2c1`, the viability was 95.1 ± 1.53% (sample A patient iPSC-derived NPCs; MTS; 10 µM, 24 h; relative to: vehicle).
The viability of `COc1cc2c(cc1-c1c(C)noc1C)ncc1[nH]c(=O)n([C@H](C)c3ccccn3)c12` is reported as 32.2% (OCI-Ly1; 0.5 µM, 120 h).
`Cc1nc2ccc(NCc3ccc(OC(F)(F)F)cc3)cc2[nH]1` gave a viability of 132 ± 7.78% (sample A patient iPSC-derived NPCs; MTS; 10 µM, 24 h; relative to: vehicle).
`Cc1cn([C@H]2C[C@H](O)[C@@H](CO)O2)c(=O)nc1N` has a viability of 189% (OCI-Ly1; 0.1 µM, 120 h).
The viability of `O=C(c1ccc(F)cc1)c1ccc2[nH]c(CO)nc2c1` is reported as 99.39 ± 0.7% (sample A patient iPSC-derived NPCs; MTS; 10 µM, 24 h; relative to: vehicle).
For `Nc1ccccc1NC(=O)CCCCCCC(=O)Nc1ccccc1`, the viability was 73.7% (OCI-Ly1; 1 µM, 120 h).
`COCCOCc1ccc(-c2cc3onc(-c4ccccc4)c3c(=O)n2C)cc1` gave a metabolic activity of 0.96 (COS-7; WST-8; 3 µM, 24 h, 0.1% DMSO, unit not given; relative to: vehicle control).

A few entries again:
The viability of `Nc1cccc2c1C(=O)N(C1CCC(=O)NC1=O)C2=O` (stereo not shown) is reported as 28% and 31% and 16% (MM1.S; XTT; 1.2 µM).
`C=C1C(=O)O[C@@H]2C[C@@]3(C)CCCC(=C)[C@@H]3C[C@H]12` gave a confluence of 0.35 ± 0.1 (COS-7; 30 µM, 24 h, 0.1% DMSO, unit not given; relative to: vehicle control).
